Assay results gathered from unrelated publications.
Each numbered part is a random draw from the data of one study; scales do not carry over between parts. Substitutions count along the parent as printed.

Set 1 — method: RNA Bind-n-Seq; form: RNA; matrix: in vitro; tested at: 100 nM; reference: input RNA pool; direction: higher = stronger binding; measurement: bound/input enrichment
Target: RING finger protein unkempt homolog, zinc fingers 1-6, SBP tag (UNK, Homo sapiens, UniProt Q9C0B0, residues 30-357)
Sequence of UniProt Q9C0B0 (30-357, looked up): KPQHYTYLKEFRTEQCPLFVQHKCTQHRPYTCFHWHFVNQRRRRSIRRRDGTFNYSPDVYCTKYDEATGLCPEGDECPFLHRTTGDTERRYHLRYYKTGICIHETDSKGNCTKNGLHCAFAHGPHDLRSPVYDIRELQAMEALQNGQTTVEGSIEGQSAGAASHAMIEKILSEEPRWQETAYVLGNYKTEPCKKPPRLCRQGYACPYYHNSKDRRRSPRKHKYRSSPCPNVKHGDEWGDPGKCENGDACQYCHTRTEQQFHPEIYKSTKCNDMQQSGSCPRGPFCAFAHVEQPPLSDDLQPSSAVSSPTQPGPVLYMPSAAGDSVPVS
Notes: RNA with constant flanks, vertebrate orthologous sites, ends assumed
Constant ends, left off below: GGGAGUUCUACAGUCCGACGAUC … CAACAGAGGAUUGAGCAUCA
CUCUAUGGGCCUCGCAGAAUUGAAAUAAUGGAAGAGGAAAGUGAACAGUAAUCUUCAUUUUAGUAUUUAUGCUUAGGUGUGAAAUAAAUGUUGUUUGUUGAUCAUUUCUAUAACCCAGAG: 0.423 ratio
CAUUGUACCCUGCUGUAUAAUAAACAGUCUUAGACAUUUAUCAACUGUUGAUACACAUGUUAGUCCCUAACCACUUUUUAUAUGUUUUAAAUUUUUGAAAUUCAAGUGUACCUGCCAUAA: 1.97 ratio
CGGGGUGCACCUGUGGGGCGCUGCUGGCCGCUUAGCGUCGUUUGAUUUGUGACCUUGACAUAAUAGAUAGGCUUGUGGUUUUUUUUAAUUUAAAGAUAUUAAGACUUAAUUCACUAAAAU: 0.592 ratio
CUCUAUGGGCCUCGCAGAGUUGAAAUAAUGGAAGAGGAAAGUGAACAGUAAUCUUCAUUUUAGUAUUUAUGUUUAGGUGUGAAAUAAAUGUUACUUGUUGAUCAUUUCUAUAAUCCAGAG: 0.698 ratio
CACAAUCUCUACUUAAGUAGGUUUUUACAUACCAAGUUAAGCCUUCAUUUUACAUAUUUACAGCUUUUCUCCAGAGGAGGUAAAAGAAUCUCAUACUUAAAGUUACAUGUGGUCUUUGCC: 0.414 ratio
GAGCACUGCCUGUGUGUACCCACAGCACUGCAGGCAAAGUAGUAAUUCCACAGUCACAGUAAGAGAGCUUCAGGGCAGUGUCACCAUGGUUCUCUCAUGGGCAGGUUCUGAAAAUGUACA: 0.571 ratio
GGUUGUACCUCCUGAACUUCUAGCUUUCAAGUUGUGGCUGUUUUUUUUUUUUCUUUUCUUUAGAAUUUUUCCCUGUUUCCCACCUUCUCUUCCCCUGUUCCCAAGGUCUAACUCAUGGAU: 2.47 ratio
UGUACUACAAAAAAAAAUCAUCCUAGUUUUAAGCUAACUACAGUGAUAACUAGUCUGUGCUAGUGGAAUAAUUUAUUAUUACUUUUUAAAUUACCUGCUCUGUCUGAUACCUGCAACCAC: 0.859 ratio
CCCUCUGAACCCCAUAUCUUCUGUUUCAUAGUGCAGAAGUAUUCUUUUCAAUUGUAUUAUUAGUGGACUUCUUUAAUUUUAGAGAAACGUUCAGUACAGAUACUGUGACCUUACAUGGAA: 0.869 ratio
AGGGAUGACCCCCAAUCCCACCUCUGUUUAUUCUGUAAACUACAACCUGUAAAUAACGUUUAGCAUUCCUAUUGUAACAAAAUUAAUUUUUAUGAAAUAAAUUAUAUUUCCUAGUCUAAU: 1.5 ratio
ACAUGCGUGAGCUUCUCUGCAGUUUAAGACGCUUCCUUUGGUUCCUCACAUAUCUCAUCCUAUUGACUUACCUAUUUUUUAAAAAUAGCAGUAUAAACUCAAAGUGGACUUAACACAGUG: 0.676 ratio

Set 2 — method: DHFR PCA, deep sequencing; matrix: yeast; together with: (+)-ABA 4.8 µM; reference: wild-type fitted maximum; direction: higher = stronger binding; measurement: relative binding score
Target: ABI1, truncated, D143A, DHFR fusion (Arabidopsis thaliana)
Notes: methotrexate growth selection, single substitutions
Starting sequence: PYL1, truncated, DHFR fusion (Arabidopsis thaliana); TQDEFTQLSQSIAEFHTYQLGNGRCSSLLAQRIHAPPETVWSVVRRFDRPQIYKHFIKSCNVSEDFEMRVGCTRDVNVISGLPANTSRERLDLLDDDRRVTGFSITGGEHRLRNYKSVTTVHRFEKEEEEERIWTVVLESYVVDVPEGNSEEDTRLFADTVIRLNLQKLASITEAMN; partner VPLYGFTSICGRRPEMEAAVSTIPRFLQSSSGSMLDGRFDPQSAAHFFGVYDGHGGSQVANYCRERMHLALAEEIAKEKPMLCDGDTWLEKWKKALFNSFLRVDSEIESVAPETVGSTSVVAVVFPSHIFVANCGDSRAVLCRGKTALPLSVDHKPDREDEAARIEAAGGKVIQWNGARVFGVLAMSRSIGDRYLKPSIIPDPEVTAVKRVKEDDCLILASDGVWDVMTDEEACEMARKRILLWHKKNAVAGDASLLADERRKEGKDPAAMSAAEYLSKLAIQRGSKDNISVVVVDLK
V145K: -5.68%
M68K: 7.07%
N22G: 72.1%
N22Q: 78.4%
L94Y: 41.9%
P50D: -11.4%
V143K: -2.76%
D75I: 81.9%
G108L: -2.66%
R132I: 73.3%
F5K: 53.4%
G102C: -1.82%
N77W: 63.2%
R163V: -1.23%
N77P: 4.3%
H16A: -9.05%
F5A: 60.5%
F15C: 17.5%
R49E: 63.6%
R88L: 60.4%

Set 3 — target: CCNE2, cyclin fold, Cln2 fusion (human); method: yeast growth competition, sequencing; matrix: yeast; notes: weak parent motif; reference: not given; direction: higher = stronger binding; measurement: normalised enrichment score
Starting sequence: PKMYT1 docking peptide (human); SFEPRNLLSLFED; partner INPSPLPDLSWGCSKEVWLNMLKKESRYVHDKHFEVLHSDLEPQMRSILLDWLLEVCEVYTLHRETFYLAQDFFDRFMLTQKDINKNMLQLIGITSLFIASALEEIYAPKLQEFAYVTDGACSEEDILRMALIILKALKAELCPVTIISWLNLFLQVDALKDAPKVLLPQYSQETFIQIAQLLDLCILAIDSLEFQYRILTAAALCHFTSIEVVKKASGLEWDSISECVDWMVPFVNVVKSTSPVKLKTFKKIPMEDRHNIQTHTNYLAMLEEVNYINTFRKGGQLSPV
L10C: 0.171
S9Q: 0.0807
F2D: 0.482
L10I: -0.0231
L8Q: -0.398
F2S: -0.568
L10Q: 0.0987
E12P: -0.382
F2Q: -0.0611
F11K: 0.235
L8E: -3.39
N6K: 0.0794
S9I: 0.4
L8F: -0.18
E3S: 0.0628
D13I: 0.282
R5K F11L: -0.266
R5D: 0.41
L8C: -0.228

Set 4 — method: protein binding microarray; form: double-stranded DNA, one strand shown; matrix: in vitro; tested at: not given; reference: not given; direction: higher = stronger binding; measurement: E-score
Target: Histone acetyltransferase KAT6A, winged helix 1, GST fusion (KAT6A, Homo sapiens, UniProt Q92794, residues 1-85)
Notes: 8-mer, flanks averaged, mean of 2 arrays, mostly near background
Residues (chain): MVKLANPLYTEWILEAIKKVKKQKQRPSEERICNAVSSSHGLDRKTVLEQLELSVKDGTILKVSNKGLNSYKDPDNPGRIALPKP
CCACACAG: -0.285
GCGGCCGA: 0.432
TAAGGCAA: -0.202
GTTTAACA: -0.238
TCAGGAAA: -0.163
ACTCTTTA: -0.119
AGCGTGAC: 0.112
GACTCCCA: -0.187
CTCTAGGC: 0.159
TCGAAAAA: -0.0359
AAGAGCTC: -0.07
CCTTCACC: 0.104
ACTCGTTC: -0.228
AGACATCC: -0.254
AGCGGTCA: 0.299
GCACTTAA: -0.137
CCAGTCGC: 0.0817
ACAAGCGA: -0.0674
CATCTAGG: -0.155
AACACATG: -0.138
CTACTCTC: -0.159

Set 5 — target: UBE2U UBC core domain (UniProt Q5VVX9); method: yeast two-hybrid; matrix: yeast; notes: mostly zero background; reference: not given; direction: higher = stronger interaction; measurement: lacZ reporter activity
B1: TRIM69 RING domain (UniProt Q86WT6); chain VIQDITMELHCPLCNDWFRDPLMLSCGHNFCEACIQDFWRLQAKETFCPECKMLCQYNNCTF
B2: ZNF598 RING domain (UniProt Q86UK7); chain AAAPERGGGSCVLCCGDLEATALGRCDHPVCYRCSTKMRVLCEQRYCAVCREELRQVVFGK
B3: IRF2BPL RING domain (UniProt Q9H1B7); chain SPMANSGPLCCTICHERLEDTHFVQCPSVPSHKFCFPCSRESIKAQGATGEVYCPSGEKCPLVGSNVP
B4: TRIM63 RING domain (UniProt Q969Q1); chain PMENLEKQLICPICLEMFTKPVVILPCQHNLCRKCANDIFQAANPYWTSRGSSVSMSGGRFRCPTCRHEVIMDRHGV
B5: RNF170 RING domain (UniProt Q96K19); chain TRQQFYTDMYCPICLHQASFPVETNCGHLFCGACIIAYWRYGSWLGAISCPICRQTVTLLLTVF
Residues (chain): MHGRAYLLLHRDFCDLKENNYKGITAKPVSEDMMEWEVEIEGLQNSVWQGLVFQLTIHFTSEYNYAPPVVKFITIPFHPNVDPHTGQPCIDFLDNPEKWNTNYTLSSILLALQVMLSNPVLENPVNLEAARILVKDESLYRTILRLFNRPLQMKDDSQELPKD
EDEVSDNSAECVVCLSDVRDTLILPCRHLCLCNTCADTLRYQANNCPICRLPFRALLQIR (RNF157 RING domain (UniProt Q96PX1)): 2090
B1 (TRIM69 RING domain): 0
B2 (ZNF598 RING domain): 5560
DAIPSLSECQCGICMEILVEPVTLPCNHTLCKPCFQSTVEKASLCCPFCRRRVSSWTRYH (RNF168 RING domain (UniProt Q8IYW5)): 8530
B3 (IRF2BPL RING domain): 15300
B4 (TRIM63 RING domain): 15700
PEELQAMDNVCIICREEMVTGAKRLPCNHIFHTSCLRSWFQRQQTCPTCRMDVLRASLPA (SYVN1 RING domain (UniProt Q86TM6)): 8720
B5 (RNF170 RING domain): 7720
FASPPDSNFVCSVCHGVLKRPARLPCSHIFCKKCILRWLARQKTCPCCRKEVKRKKVVH (RNF151 RING domain (UniProt Q2KHN1)): 0
VTLSLTLPITCHICLGKVRQPVICINNHVFCSICIDLWLKNNSQCPACRVPITPENPCK (OBI1 RING domain (UniProt Q5W0B1)): 4720
YWAMDSTFELCKICAESNKDVKIEPCGHLLCSCCLAAWQHSDSQTCPFCRCEIKGWEAVS (CBLC RING domain (UniProt Q9ULV8)): 0
FPEHFVKSISCQICEHILADPVETNCKHVFCRVCILRCLKVMGSYCPSCRYPCFPTDLES (RAG1 RING domain (UniProt P15918)): 0

Set 6 — target: JUND, bZIP domain (human); method: DHFR protein complementation; matrix: yeast; reference: wild-type JUN-FOS pair; direction: higher = stronger binding; measurement: binding fitness
Notes: single substitutions, most at no-binding floor
Starting sequence: JUN, bZIP domain (human); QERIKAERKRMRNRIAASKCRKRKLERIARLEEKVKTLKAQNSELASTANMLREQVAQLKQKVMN; partner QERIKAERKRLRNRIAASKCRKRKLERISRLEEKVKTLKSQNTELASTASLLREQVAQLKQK
Q58H: -0.718 natural log
A46V: -0.595 natural log
K36I: -0.982 natural log
E54I: -0.875 natural log
T37Q: -0.346 natural log
V56I: -0.484 natural log
K39E: -0.274 natural log
I28T: -1.16 natural log
A29E: -0.998 natural log
V35Y: -0.914 natural log
T37L: -0.528 natural log
K36N: -0.78 natural log
K39Q: -0.572 natural log
E33R: -0.832 natural log

Repeated from above (set 1):
CUCUAUGGGCCUCGCAGAGUUGAAAUAAUGGAAGAGGAAAGUGAACAGUAAUCUUCAUUUUAGUAUUUAUGUUUAGGUGUGAAAUAAAUGUUACUUGUUGAUCAUUUCUAUAAUCCAGAG: 0.698 ratio
CCCUCUGAACCCCAUAUCUUCUGUUUCAUAGUGCAGAAGUAUUCUUUUCAAUUGUAUUAUUAGUGGACUUCUUUAAUUUUAGAGAAACGUUCAGUACAGAUACUGUGACCUUACAUGGAA: 0.869 ratio
GGUUGUACCUCCUGAACUUCUAGCUUUCAAGUUGUGGCUGUUUUUUUUUUUUCUUUUCUUUAGAAUUUUUCCCUGUUUCCCACCUUCUCUUCCCCUGUUCCCAAGGUCUAACUCAUGGAU: 2.47 ratio
ACAUGCGUGAGCUUCUCUGCAGUUUAAGACGCUUCCUUUGGUUCCUCACAUAUCUCAUCCUAUUGACUUACCUAUUUUUUAAAAAUAGCAGUAUAAACUCAAAGUGGACUUAACACAGUG: 0.676 ratio
CACAAUCUCUACUUAAGUAGGUUUUUACAUACCAAGUUAAGCCUUCAUUUUACAUAUUUACAGCUUUUCUCCAGAGGAGGUAAAAGAAUCUCAUACUUAAAGUUACAUGUGGUCUUUGCC: 0.414 ratio
CAUUGUACCCUGCUGUAUAAUAAACAGUCUUAGACAUUUAUCAACUGUUGAUACACAUGUUAGUCCCUAACCACUUUUUAUAUGUUUUAAAUUUUUGAAAUUCAAGUGUACCUGCCAUAA: 1.97 ratio
UGUACUACAAAAAAAAAUCAUCCUAGUUUUAAGCUAACUACAGUGAUAACUAGUCUGUGCUAGUGGAAUAAUUUAUUAUUACUUUUUAAAUUACCUGCUCUGUCUGAUACCUGCAACCAC: 0.859 ratio
CGGGGUGCACCUGUGGGGCGCUGCUGGCCGCUUAGCGUCGUUUGAUUUGUGACCUUGACAUAAUAGAUAGGCUUGUGGUUUUUUUUAAUUUAAAGAUAUUAAGACUUAAUUCACUAAAAU: 0.592 ratio
AGGGAUGACCCCCAAUCCCACCUCUGUUUAUUCUGUAAACUACAACCUGUAAAUAACGUUUAGCAUUCCUAUUGUAACAAAAUUAAUUUUUAUGAAAUAAAUUAUAUUUCCUAGUCUAAU: 1.5 ratio
GAGCACUGCCUGUGUGUACCCACAGCACUGCAGGCAAAGUAGUAAUUCCACAGUCACAGUAAGAGAGCUUCAGGGCAGUGUCACCAUGGUUCUCUCAUGGGCAGGUUCUGAAAAUGUACA: 0.571 ratio
CUCUAUGGGCCUCGCAGAAUUGAAAUAAUGGAAGAGGAAAGUGAACAGUAAUCUUCAUUUUAGUAUUUAUGCUUAGGUGUGAAAUAAAUGUUGUUUGUUGAUCAUUUCUAUAACCCAGAG: 0.423 ratio
